Experimental data pooled from the literature.
Each line is one published result; not all experiments were run side by side.
DNA polymerase III PolC-type: DNA polymerase III PolC-type (Bacillus subtilis, UniProt P13267)
UniProt P13267, sequence (whole entry, looked up): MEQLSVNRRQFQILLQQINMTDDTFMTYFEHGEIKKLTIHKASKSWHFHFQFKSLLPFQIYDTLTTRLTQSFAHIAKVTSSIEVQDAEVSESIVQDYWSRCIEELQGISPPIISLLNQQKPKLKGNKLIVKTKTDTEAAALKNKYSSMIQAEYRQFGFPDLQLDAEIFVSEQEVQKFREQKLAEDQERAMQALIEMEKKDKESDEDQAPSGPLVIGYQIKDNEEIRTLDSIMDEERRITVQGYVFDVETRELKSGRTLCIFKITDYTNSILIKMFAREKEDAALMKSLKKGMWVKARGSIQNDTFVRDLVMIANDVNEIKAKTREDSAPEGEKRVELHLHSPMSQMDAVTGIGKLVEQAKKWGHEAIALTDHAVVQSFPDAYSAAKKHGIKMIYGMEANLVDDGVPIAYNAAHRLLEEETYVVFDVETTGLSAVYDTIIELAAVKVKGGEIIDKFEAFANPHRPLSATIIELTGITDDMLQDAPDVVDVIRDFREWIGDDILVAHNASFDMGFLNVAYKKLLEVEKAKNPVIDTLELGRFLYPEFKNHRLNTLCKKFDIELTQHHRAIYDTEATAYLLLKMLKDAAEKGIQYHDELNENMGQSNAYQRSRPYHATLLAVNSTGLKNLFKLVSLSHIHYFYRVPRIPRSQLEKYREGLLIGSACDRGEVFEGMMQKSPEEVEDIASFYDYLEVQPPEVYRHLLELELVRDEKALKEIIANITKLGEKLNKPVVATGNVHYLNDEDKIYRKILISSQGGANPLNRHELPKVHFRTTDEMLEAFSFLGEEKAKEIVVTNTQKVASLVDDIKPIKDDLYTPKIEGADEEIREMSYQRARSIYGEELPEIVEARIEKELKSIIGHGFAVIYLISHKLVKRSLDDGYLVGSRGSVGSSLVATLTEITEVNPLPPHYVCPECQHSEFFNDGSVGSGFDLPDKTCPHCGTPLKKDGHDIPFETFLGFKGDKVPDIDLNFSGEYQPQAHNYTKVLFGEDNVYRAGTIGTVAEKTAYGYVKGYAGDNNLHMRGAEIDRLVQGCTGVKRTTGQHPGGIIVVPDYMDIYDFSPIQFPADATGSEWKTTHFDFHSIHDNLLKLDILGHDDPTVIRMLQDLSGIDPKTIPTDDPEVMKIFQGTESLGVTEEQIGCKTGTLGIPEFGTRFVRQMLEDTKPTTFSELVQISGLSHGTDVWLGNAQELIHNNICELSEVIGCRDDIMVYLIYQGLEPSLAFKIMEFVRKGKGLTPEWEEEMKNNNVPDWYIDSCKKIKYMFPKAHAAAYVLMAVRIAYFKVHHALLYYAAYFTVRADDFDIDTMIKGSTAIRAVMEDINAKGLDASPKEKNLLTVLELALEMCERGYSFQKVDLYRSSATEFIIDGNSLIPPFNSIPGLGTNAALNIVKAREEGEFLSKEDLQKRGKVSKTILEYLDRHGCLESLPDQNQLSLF
CDA: Cytidine deaminase (CDA, Homo sapiens, UniProt P32320)
UniProt P32320, sequence (whole entry, looked up): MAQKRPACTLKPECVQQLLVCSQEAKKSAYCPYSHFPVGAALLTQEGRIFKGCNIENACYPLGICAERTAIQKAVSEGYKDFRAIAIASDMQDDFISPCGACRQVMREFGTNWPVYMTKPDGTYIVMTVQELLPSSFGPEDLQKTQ
UniProt P50613, sequence (whole entry, looked up): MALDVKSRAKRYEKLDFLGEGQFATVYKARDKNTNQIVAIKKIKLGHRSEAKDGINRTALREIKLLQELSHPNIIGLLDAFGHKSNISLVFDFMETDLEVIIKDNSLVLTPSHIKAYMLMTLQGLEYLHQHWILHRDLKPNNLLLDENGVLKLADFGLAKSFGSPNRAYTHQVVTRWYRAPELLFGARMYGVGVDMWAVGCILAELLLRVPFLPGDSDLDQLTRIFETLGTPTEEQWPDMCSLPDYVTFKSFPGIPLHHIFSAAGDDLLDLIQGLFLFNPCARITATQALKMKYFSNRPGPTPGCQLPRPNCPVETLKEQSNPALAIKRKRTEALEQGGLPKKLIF
UniProt P25100, sequence (whole entry, looked up): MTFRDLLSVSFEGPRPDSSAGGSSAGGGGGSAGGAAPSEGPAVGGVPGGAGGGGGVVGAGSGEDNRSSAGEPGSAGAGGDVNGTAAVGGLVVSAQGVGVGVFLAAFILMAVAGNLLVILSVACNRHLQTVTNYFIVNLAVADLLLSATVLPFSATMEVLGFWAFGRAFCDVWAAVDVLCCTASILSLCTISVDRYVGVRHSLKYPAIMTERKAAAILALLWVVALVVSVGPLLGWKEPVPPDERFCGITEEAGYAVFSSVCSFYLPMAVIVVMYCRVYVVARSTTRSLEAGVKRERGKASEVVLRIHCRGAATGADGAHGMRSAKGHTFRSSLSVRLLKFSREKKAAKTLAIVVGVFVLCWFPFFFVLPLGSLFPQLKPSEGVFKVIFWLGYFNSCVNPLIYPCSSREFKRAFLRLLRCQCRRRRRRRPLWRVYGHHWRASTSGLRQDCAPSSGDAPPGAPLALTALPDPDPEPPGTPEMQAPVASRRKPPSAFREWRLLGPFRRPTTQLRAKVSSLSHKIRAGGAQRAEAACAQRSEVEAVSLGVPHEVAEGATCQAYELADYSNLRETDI
UniProt P08173, sequence (whole entry, looked up): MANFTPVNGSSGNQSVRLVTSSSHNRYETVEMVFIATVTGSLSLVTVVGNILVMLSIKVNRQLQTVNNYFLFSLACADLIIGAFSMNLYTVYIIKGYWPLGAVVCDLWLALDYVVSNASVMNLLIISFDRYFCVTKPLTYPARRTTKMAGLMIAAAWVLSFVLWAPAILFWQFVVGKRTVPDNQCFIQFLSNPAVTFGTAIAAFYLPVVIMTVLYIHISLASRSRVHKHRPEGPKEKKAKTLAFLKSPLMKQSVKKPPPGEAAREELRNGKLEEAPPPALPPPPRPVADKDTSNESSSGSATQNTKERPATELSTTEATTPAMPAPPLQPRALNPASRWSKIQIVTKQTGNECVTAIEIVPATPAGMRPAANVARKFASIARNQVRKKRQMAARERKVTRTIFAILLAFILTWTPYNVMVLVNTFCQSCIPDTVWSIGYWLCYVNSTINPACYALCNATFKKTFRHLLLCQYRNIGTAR
UniProt P11229, sequence (whole entry, looked up): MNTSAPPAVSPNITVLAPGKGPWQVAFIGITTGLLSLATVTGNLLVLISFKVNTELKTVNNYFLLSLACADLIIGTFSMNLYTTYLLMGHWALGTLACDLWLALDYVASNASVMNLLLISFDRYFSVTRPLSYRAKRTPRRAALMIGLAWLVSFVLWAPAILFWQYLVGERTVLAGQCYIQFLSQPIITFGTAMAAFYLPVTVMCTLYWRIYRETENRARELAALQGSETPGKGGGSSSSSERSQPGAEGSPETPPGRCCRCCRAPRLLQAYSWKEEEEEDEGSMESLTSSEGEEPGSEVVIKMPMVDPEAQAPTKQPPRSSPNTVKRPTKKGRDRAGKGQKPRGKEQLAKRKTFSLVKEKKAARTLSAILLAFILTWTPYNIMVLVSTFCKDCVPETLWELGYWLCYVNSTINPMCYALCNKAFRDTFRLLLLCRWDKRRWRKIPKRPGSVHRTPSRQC

SMILES | target | test | test system | setting | Ki [nM]
CNC(=O)[C@@]12C[C@@H]1[C@@H](n1cnc3c(NC)nc(C#C[c-]4cccc4)nc31)[C@H](O)[C@@H]2O.[Fe+2].c1cc[cH-]c1 | CHRM1 (Homo sapiens, UniProt P11229) | radioligand binding (PDSP) | – | – | 1100
CCc1cc(Nc2nc3ncn(CCCCCO)c3c(=O)[nH]2)ccc1C | DNA polymerase III PolC-type | enzyme activity, inhibitor | – | truncated, dGTP omitted, 4% DMSO | 740
Nc1ccn([C@@H]2O[C@H](CO)[C@@H](O)[C@H]2O)c(=O)c1 | CDA | inhibitor | – | pH 7.5 | 500
O=c1[nH]c(NCc2ccc(Cl)c(Cl)c2)nc2ncn(CCCCCN3CCOCC3)c12 | DNA polymerase III PolC-type | enzyme activity, inhibitor | – | truncated, dGTP omitted, 4% DMSO | 270
C[C@@]1(O)CCC[C@H]1n1c(=O)c(C(F)F)cc2cnc(NC3CCN(S(C)(=O)=O)CC3)nc21 | CDK7 (Homo sapiens, UniProt P50613) | kinase activity, inhibitor, fluorescence | – | – | 293
CNC(=O)[C@@]12C[C@@H]1[C@@H](n1cnc3c(NC)nc(C#Cc4cnccn4)nc31)[C@H](O)[C@@H]2O | ADRA1D (Homo sapiens, UniProt P25100) | radioligand binding (PDSP) | – | – | 1000 to 10000
CCc1cc(Nc2cc(=O)n(CCCCN3CCOCC3)c(=O)[nH]2)ccc1C | DNA polymerase III PolC-type | enzyme activity, inhibitor | – | truncated, dGTP omitted, 4% DMSO | 53
O=c1n(CCCN2CCN(c3cccc(Cl)c3)CC2)nc2ccccn12 | CHRM4 (Homo sapiens, UniProt P08173) | – | – | – | > 10000
O=C1NC(O)CCN1[C@H]1C[C@H](O)[C@@H](CO)O1 (stereo partly drawn) | CDA | inhibitor | – | pH 7.5 | 37
O=c1[nH]c(NCc2ccc(Cl)c(Cl)c2)nc2ncn(CCCN3CCOCC3)c12 | DNA polymerase III PolC-type | enzyme activity, inhibitor | – | truncated, dGTP omitted, 4% DMSO | 160
O=C1NCCCN1C1OC(CO)C(O)C1O (stereo not drawn) | CDA | inhibitor | – | pH 7.5 | 440000
FC1CCN(c2ccc(-c3ccc4sccc4n3)cn2)CC1 | Alpha-synuclein, aggregates (SNCA, Homo sapiens, UniProt P37840) | – | Parkinson's disease brain homogenate | added: 1 nM [3H]asyn-44 | 31.9

A few entries again:
SMILES | target | test | test system | setting | Ki [nM]
O=c1n(CCCN2CCN(c3cccc(Cl)c3)CC2)nc2ccccn12 | CHRM4 (Homo sapiens, UniProt P08173) | – | – | – | > 10000
O=C1NC(O)CCN1[C@H]1C[C@H](O)[C@@H](CO)O1 (stereo partly drawn) | CDA | inhibitor | – | pH 7.5 | 37
